Assay results collected from several papers.
Each line is one published result; not all experiments were run side by side. ± marks the error that the study gave. Non-standard residues stand in square brackets, D forms with d. Square brackets hold non-standard residues; d marks the D form. Ends that are not written are not given here. No end group written: not given here.
B1: ALOX15 (Homo sapiens, UniProt P16050); sequence looked up; chain MGLYRIRVSTGASLYAGSNNQVQLWLVGQHGEAALGKRLWPARGKETELKVEVPEYLGPLLFVKLRKRHLLKDDAWFCNWISVQGPGAGDEVRFPCYRWVEGNGVLSLPEGTGRTVGEDPQGLFQKHREEELEERRKLYRWGNWKDGLILNMAGAKLYDLPVDERFLEDKRVDFEVSLAKGLADLAIKDSLNVLTCWKDLDDFNRIFWCGQSKLAERVRDSWKEDALFGYQFLNGANPVVLRRSAHLPARLVFPPGMEELQAQLEKELEGGTLFEADFSLLDGIKANVILCSQQHLAAPLVMLKLQPDGKLLPMVIQLQLPRTGSPPPPLFLPTDPPMAWLLAKCWVRSSDFQLHELQSHLLRGHLMAEVIVVATMRCLPSIHPIFKLIIPHLRYTLEINVRARTGLVSDMGIFDQIMSTGGGGHVQLLKQAGAFLTYSSFCPPDDLADRGLLGVKSSFYAQDALRLWEIIYRYVEGIVSLHYKTDVAVKDDPELQTWCREITEIGLQGAQDRGFPVSLQARDQVCHFVTMCIFTCTGQHASVHLGQLDWYSWVPNAPCTMRLPPPTTKDATLETVMATLPNFHQASLQMSITWQLGRRQPVMVAVGQHEEEYFSGPEPKAVLKKFREELAALDKEIEIRNAKLDMPYEYLRPSVVENSVAI
B2: myo52/cam1/cdc4 heavy chain 1-1056 (Schizosaccharomyces pombe); chain 1 MTSGIYYKGLQCWIPDEQSQWIPGSIKDCRVEGEKAFLTVQDENENETVITVKPDDLNYEGRNGLPFLRSINSDADDLTDLSYLNEPSVLDALSTRYNQLQIYTYSGIVLIAVNPFQRLPNLYTHEIVRAYSEKSRDELDPHLYAIAEDSYKCMNQEHKNQTIIISGESGAGKTVSARYIMRYFASVQALIQSTDSNFHEAPQLTAVENEILATNPIMEAFGNSKTSRNDNSSRFGKYIQILFDGNATIIGAKIQTYLLERSRLVFQPNQERNYHIFYQILAGSSSEQLEKWKLVENSQEFNYLKQGNCSTIEGVNDKEEFKATVDALKTVGIDNDTCECIFSLLAALLHIGNIEVKHSRNDAYIDSKNENLINATSLLGVDPSSLVKWLTKRKIKMASEGILKPLNEFQAVVARDSVAKFLYASLFDWLVATINKALMYSADKSNQTAKSFIGVLDIYGFEHFKKNSFEQFCINYANEKLQQEFYRHVFKLEQEEYAAEGLNWSYIDYQDNQQCISMIESRLGILSLLDEECRMPTNSDENWVSKLNDAFSKPEFKNSYQKSRFGNKEFTIKHYALDVVYCAEGFIDKNRDTISDELLELFTNSDVPFVKDLVLFRLEQTAPPADTKKIKTKPKSNTLGSMFKSSLVSLMSTINETNAHYIRCIKPNEEKEAWKFDNQMVVSQLRACGVLETIKISCAGFPSRWTFDEFVSRYYMLVPSAVRTTESLTFSKAILEKHADPTKYQIGKTKIFFRSGVTPLLESARDKALKHAAHLLYEAFAVNYYRTRFLLSRKRVRSFQAVAHGFLSRRHTEYELLSSNIIKLQSLWRTALKRKEFIQTKNSILKVQSIIRGFLLRQTLEEKTKHDATLIIQSLWLTFKAHKHYKELQYYAVRIQSLWRMKLAKRQLTELKIESTKASHLKQVSYRLESRLFEISKQLDNSEQENNKFRERIAELESHLSNYAEAKLAQERELEQTRVLISDQSQDGELKELLEEKENALIMMEEEMRQVNDANTELLRVNATLKSQLKNYDMIIVEQTSQLKEKNRIIASLTKA; chain 2 MTTRNLTDEQIAEFREAFSLFDRDQDGNITSNELGVVMRSLGQSPTAAELQDMINEVDADGNGTIDFTEFLTMMARKMKDTDNEEEVREAFKVFDKDGNGYITVEELTHVLTSLGERLSQEEVADMIREADTDGDGVINYEEFSRVISSK; chain 3 MSTDDSPYKQAFSLFDRHGTGRIPKTSIGDLLRACGQNPTLAEITEIESTLPAEVDMEQFLQVLNRPNGFDMPGDPEEFVKGFQVFDKDATGMIGVGELRYVLTSLGEKLSNEEMDELLKGVPVKDGMVNYHDFVQMILAN
B3: MAP7D3 426-876 (Homo sapiens, UniProt Q8IWC1); chain PKESVKGSPKESMEASPEAMVKASPKTSLEASMEASPKAKARDAPKKSEMDKQALIPIAKKRLSSYTECYKWSSSPENACGLPSPISTNRQIQKNCPPSPLPLISKQSPQTSFPYKIMPIQHTLSVQSASSTVKKKKETVSKTTNRCEALSQRHMIYEESGNKSTAGIMNAEAATKILTELRRLAREQREKEEEERQREEMQQRVIKKSKDMAKEAVGGQAEDHLKLKDGQQQNETKKKKGWLDQEDQEAPLQKGDAKIKAQEEADKRKKEHERIMLQNLQERLERKKRIEEIMKRTRKTDVNASKVTETSSHDIYEEAEADNEESDKDSLNEMFPSAILNGTGSPTKFKMPFNNAKKMTHKLVFLEDGTSQVRKEPKTYFNGDLKNFRQKSMKDTSIQEVVSRPSSKRMTSHTTKTRKADETNTTSRSSAQTKSEGFHDILPKSSDTFRQ
B4: POL30 (Saccharomyces cerevisiae, UniProt P15873); Cy3 label; sequence looked up; chain MLEAKFEEASLFKRIIDGFKDCVQLVNFQCKEDGIIAQAVDDSRVLLVSLEIGVEAFQEYRCDHPVTLGMDLTSLSKILRCGNNTDTLTLIADNTPDSIILLFEDTKKDRIAEYSLKLMDIDADFLKIEELQYDSTLSLPSSEFSKIVRDLSQLSDSINIMITKETIKFVADGDIGSGSVIIKPFVDMEHPETSIKLEMDQPVDLTFGAKYLLDIIKGSSLSDRVGIRLSSEAPALFQFDLKSGFLQFFLAPKFNDEE
B5: TXN2 mature (Homo sapiens, UniProt Q99757); sequence looked up; chain TTFNIQDGPDFQDRVVNSETPVVVDFHAQWCGPCKILGPRLEKMVAKQHGKVVMAKVDIDDHTDLAIEYEVSAVPTVLAMKNGDVVDKFVGIKDEDQLEAFLKKLIG
UniProt P27918, sequence (whole entry, looked up): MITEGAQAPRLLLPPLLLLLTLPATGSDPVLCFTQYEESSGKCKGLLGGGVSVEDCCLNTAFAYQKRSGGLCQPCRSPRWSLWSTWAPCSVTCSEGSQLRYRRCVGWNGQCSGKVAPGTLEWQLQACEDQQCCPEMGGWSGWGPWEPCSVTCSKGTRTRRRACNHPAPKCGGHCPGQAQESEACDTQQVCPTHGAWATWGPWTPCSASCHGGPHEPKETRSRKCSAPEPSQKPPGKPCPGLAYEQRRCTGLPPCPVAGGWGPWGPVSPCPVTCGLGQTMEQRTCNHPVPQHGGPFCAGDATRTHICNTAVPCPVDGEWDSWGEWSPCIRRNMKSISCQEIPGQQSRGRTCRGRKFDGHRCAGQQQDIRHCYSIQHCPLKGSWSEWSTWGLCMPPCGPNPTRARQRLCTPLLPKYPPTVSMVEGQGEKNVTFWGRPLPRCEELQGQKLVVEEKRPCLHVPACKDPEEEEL
UniProt P14784, sequence (whole entry, looked up): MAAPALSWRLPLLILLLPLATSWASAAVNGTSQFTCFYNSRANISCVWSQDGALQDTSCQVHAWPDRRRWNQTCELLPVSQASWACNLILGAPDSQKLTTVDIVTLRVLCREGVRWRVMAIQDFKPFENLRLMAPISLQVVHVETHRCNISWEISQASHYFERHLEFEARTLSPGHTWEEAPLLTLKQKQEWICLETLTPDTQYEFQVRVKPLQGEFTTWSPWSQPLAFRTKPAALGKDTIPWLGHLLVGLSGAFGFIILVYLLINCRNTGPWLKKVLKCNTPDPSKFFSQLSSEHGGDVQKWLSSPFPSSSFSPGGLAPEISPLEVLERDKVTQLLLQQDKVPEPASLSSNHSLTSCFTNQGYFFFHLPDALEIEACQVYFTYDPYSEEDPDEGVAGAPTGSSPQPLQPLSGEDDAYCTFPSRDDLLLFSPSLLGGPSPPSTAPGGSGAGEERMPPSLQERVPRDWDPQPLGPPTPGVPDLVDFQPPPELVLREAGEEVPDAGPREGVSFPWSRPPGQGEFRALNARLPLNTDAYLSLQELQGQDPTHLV
UniProt P35343, sequence (whole entry, looked up): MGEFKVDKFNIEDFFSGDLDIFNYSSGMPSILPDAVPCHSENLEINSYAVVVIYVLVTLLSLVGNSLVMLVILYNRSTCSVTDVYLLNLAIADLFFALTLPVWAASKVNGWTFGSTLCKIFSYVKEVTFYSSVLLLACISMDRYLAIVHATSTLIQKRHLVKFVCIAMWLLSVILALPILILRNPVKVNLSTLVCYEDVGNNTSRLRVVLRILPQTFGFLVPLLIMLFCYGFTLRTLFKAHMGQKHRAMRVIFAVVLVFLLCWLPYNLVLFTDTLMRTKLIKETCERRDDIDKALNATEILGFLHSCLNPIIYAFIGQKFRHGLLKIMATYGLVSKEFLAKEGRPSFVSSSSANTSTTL
UniProt P29597, sequence (whole entry, looked up): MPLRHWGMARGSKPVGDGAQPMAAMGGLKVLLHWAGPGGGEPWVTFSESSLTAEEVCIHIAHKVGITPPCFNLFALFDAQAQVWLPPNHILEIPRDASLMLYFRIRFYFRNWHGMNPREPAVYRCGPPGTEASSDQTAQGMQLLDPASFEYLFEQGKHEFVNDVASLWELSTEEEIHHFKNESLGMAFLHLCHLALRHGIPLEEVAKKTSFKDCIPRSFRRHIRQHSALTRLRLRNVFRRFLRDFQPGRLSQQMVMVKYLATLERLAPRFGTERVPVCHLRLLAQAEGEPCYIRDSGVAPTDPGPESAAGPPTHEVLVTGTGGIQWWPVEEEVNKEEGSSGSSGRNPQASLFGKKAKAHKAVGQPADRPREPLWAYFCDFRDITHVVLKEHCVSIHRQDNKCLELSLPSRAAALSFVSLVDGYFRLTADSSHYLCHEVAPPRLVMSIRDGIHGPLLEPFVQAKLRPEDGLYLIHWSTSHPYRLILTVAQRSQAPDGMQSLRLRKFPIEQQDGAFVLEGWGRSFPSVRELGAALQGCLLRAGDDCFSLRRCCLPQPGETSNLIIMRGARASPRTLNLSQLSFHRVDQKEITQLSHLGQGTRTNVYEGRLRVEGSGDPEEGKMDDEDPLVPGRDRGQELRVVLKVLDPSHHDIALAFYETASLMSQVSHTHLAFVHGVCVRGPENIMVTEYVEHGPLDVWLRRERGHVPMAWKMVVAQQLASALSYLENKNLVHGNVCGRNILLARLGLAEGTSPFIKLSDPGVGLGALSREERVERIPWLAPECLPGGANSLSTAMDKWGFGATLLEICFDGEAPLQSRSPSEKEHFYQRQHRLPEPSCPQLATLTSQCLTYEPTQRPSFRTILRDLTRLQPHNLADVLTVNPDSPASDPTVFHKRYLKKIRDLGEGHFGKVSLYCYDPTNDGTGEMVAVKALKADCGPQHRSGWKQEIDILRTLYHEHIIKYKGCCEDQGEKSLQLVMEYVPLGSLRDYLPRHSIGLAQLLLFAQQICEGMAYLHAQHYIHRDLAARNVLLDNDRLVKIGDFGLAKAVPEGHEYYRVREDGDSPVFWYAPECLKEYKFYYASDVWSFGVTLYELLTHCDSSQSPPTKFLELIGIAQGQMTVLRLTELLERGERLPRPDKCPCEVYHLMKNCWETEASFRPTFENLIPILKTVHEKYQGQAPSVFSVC
UniProt Q04049, sequence (whole entry, looked up): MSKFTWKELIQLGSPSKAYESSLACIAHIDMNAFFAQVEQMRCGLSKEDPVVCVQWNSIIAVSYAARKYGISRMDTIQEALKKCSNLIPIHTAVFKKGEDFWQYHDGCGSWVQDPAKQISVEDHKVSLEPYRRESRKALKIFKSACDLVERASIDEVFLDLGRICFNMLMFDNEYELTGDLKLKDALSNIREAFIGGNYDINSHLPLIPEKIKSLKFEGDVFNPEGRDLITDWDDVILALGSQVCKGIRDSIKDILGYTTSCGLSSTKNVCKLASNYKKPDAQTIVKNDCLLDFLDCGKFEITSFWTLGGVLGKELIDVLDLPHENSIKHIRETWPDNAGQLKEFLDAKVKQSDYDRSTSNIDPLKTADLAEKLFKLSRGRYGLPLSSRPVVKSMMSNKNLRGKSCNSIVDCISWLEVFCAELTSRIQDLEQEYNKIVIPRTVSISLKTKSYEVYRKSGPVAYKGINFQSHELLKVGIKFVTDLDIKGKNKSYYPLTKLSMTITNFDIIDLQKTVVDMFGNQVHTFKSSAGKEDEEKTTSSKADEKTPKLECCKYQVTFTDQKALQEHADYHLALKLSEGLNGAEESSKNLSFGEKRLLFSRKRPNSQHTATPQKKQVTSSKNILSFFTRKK
UniProt P06400, sequence (whole entry, unmodified, looked up): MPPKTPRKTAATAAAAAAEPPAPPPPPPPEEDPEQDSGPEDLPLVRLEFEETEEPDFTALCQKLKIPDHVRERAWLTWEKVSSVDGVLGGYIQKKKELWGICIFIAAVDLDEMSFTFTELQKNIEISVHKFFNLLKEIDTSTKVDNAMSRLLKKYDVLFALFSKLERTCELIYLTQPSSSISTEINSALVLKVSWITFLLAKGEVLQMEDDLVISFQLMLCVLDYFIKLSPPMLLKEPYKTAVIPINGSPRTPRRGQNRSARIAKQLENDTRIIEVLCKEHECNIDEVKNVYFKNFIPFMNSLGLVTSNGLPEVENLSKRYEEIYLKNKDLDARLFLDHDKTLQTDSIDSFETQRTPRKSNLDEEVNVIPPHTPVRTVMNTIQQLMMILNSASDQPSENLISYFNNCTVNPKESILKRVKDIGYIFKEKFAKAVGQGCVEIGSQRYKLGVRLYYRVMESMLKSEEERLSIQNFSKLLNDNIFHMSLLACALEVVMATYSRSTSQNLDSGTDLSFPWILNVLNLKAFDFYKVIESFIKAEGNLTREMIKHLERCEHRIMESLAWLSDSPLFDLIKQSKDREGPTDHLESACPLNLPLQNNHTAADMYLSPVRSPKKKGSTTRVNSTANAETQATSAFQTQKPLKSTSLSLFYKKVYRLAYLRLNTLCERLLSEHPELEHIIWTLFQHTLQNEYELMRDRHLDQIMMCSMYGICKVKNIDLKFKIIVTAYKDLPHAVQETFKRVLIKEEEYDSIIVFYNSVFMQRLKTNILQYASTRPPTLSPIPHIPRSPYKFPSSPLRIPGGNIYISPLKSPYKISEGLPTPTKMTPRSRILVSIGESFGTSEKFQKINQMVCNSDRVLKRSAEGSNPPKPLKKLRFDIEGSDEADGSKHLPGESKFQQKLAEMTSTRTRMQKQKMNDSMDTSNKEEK
UniProt P03956, sequence (whole entry, looked up): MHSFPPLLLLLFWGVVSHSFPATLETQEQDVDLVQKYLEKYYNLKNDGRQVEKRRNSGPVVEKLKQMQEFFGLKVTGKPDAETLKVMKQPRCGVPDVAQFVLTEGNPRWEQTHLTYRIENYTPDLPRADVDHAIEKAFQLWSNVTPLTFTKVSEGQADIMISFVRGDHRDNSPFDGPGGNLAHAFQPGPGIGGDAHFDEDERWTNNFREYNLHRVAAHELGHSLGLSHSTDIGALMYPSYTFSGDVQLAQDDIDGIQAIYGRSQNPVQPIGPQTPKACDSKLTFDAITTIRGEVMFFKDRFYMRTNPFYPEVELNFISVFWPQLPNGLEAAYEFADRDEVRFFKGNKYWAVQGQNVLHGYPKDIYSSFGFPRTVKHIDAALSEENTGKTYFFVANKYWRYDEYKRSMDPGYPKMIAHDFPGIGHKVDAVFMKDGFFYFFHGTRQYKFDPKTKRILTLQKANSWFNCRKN
UniProt P00004, sequence (whole entry, looked up): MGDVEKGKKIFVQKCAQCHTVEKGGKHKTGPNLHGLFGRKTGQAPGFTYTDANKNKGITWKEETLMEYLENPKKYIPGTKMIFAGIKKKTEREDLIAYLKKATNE

`ubiquitin I36A, Cy3B label`: “decrease of RCR activity” 50 % decrease (MYCBP2 4378-4640 C4520K (Homo sapiens); E2-E3 isopeptide formation; single turnover).
With `CCND1/CDK4 fusion, linker (Homo sapiens)` the phosphorylation reduction was 20 fold (RB1 1-892 (Homo sapiens, UniProt P06400); in vitro kinase assay; relative to: wild-type Rb, higher = greater reduction).
`ETDKE[pY][pY]TVKD (JAK1 1029-1039; pY1034/pY1035; pY = N[C@@H](Cc1ccc(OP(=O)(O)O)cc1)C(=O)O)` gave a ΔH of -16.6 ± 0.5 kcal/mol (PTPN6 243-530 C453S (Homo sapiens, UniProt P29350); ITC; peptide).
Under “relative DNA-PK kinase activity”, `B1 (ALOX15)` is recorded as 3 fold (PRKDC (Homo sapiens, UniProt P78527); immunoprecipitation kinase assay; lysate; relative to: HCT-116 vector cell lysates, higher = more kinase activity).
The mass change of `PapB (Paenibacillus polymyxa)` is reported as -12 Da (PapA-MBP fusion precursor peptide, leader plus core (Paenibacillus polymyxa); MALDI-TOF-MS; in E. coli, six thioether linkages).
With `DLAT L2 domain, lipoylated` the ΔH was -14.5 kcal/mol (Pdk2 (Rattus norvegicus); ITC; 30 °C, single-site, no nucleotide).
`RFC1/RFC2/RFC3/RFC4/RFC5 Rfc1 284-end (Saccharomyces cerevisiae)` has a kobs of 36 s⁻¹ (POL30 1-258 C22S/C62S/C81S/S43C, MDCC on Cys43 (Saccharomyces cerevisiae, UniProt P15873); stopped-flow fluorescence; 200 nM RFC, 20 °C, added: ATP 0.5 mM).
`CALM1 T26C, Alexa Fluor 568 at C26 (sequence not shown)` — result for “dissociation time constant”: 569 ms (Camk2d T287A (Rattus norvegicus); FRET; rapid Ca chelation).
The EC50 of `Cxcl2 dimer T27C, disulfide across dimer interface (Mus musculus)` is reported as 176 nM (Cxcr2 (Mus musculus, UniProt P35343); Ca2+ release, agonist, FLIPR; mouse bone marrow neutrophils; disulfide-trapped dimer).
The TRPC1 current of `TRPC1 (Homo sapiens, UniProt P48995-2)` is reported as 22 pA (STIM1 K684D/K685D (UniProt Q13586); patch clamp; HEK; added: carbachol 100 µM).
`TDRD3 fragment (Homo sapiens)`: “fold weaker affinity” 7 fold (histone H3 peptide, symmetric dimethyl R17; fluorescence polarisation; relative to: aDMA H3R17 peptide).
For `KATGAA[pT]PKKSAKW (histone H1.4 residues 139-151 (Homo sapiens); pT145; pT = C[C@@H](OP(=O)(O)O)[C@H](N)C(=O)O)`, “exchange rate constant” read 5.6 s⁻¹ (PIN1 51-163 (Homo sapiens, UniProt Q13526); EXSY NMR; peptide; 1 mM peptide, 25 °C).
Under “pSTAT5+ CD8 T cells”, `IL2 V91R (Homo sapiens)` is recorded as 100 fold (IL2RB (Homo sapiens, UniProt P14784); flow cytometry; human PBMCs; relative to: wildtype IL2, higher = greater reduction).
`B2` — result for “relative run frequency”: greater than 7 fold (ACTA1/cdc8 actin filaments decorated with tropomyosin (Gallus gallus/Schizosaccharomyces pombe); TIRF microscopy; added: ATP 10 µM; relative to: bare actin, higher = more processive runs).
`SKA1/SKA2 (Homo sapiens) (sequence not shown)` has a koff of 4.9 ± 0.4 s⁻¹ (TUBA1B/TUBB2B taxol-stabilized microtubules; residence times, single-molecule TIRF microscopy; 30 °C).
`B3 (MAP7D3 426-876)` has a recruitment of 3 fold (KIF5B/KLC2 full length, heterotetramer (Homo sapiens); TIRF; no microtubules; relative to: without MAP7D3 ct, higher = more recruitment).
`IDEYFSEQPLKNLLLSTSAEQIEKCFIIENISTIA (IFNAR1 478-512 E496A (Homo sapiens, UniProt P17181))` — result for “apparent Tm reduction”: 1 °C (TYK2 23-583 (Homo sapiens, UniProt P29597); differential scanning fluorimetry; peptide).
`B4 (POL30)` gave a koff of 0.53 ± 0.01 s⁻¹ (RAD30 (Saccharomyces cerevisiae, UniProt Q04049); single-molecule TIRF; pH 7.5).
`B5 (TXN2 mature)`: “Trx2/ASK1 ratio decrease” 20% (MAP3K5 (Homo sapiens, UniProt Q99683); co-IP; HLE B3; without H2O2, in cells; relative to: vector cells, lower = less Trx2 bound).
Under “sulfite dehydrogenase activity”, `CYCS mature (Equus caballus, UniProt P00004)` is recorded as 7.4 U/mg (sorT mature (Sinorhizobium meliloti); steady-state kinetics; pH 8.0, added: cytochrome as electron acceptor).
With `DnaA (Caulobacter crescentus)` the KM was 13 µM (ClpA/ClpP ClpA lacking C-terminal 9 residues (Caulobacter crescentus); steady-state kinetics; 30 °C).
`Ac-SSEVNA-NH2 (PLCB3 residues 581-586, N-acetyl, C-amide (Homo sapiens); N-acetyl, C-amide)` has an inhibition of 52% (PLCB3 (Homo sapiens, UniProt Q01970); ACh-induced Ca2+ transient; peptide, HEK293; 100 µM, 1 h, added: ACh 1 µM; relative to: vehicle, higher = stronger inhibition).
With `C3 C3(H2O), hydrolysed thioester (UniProt P01024)` the relative binding was 1.5 fold (CFP trimer (Homo sapiens, UniProt P27918); flow cytometry; thrombin-activated platelets; added: properdin P3 25 µg/mL; relative to: activated platelets without properdin, higher = more C3(H2O) bound).
The Ki of `TIMP2 N-terminal domain S4P/V6G/I35V/S68N/V71I/T99N` is reported as 9.53 nM (MMP1 100-269 (Homo sapiens, UniProt P03956); fluorogenic substrate cleavage, inhibitor, enzyme inhibition assay; apparent).
With `VSIG4 fragment (Homo sapiens)` the IC50 was 1.6 µM (C3b (Homo sapiens, UniProt P01024); alternative-pathway lysis of rabbit erythrocytes, inhibitor; serum; 12%).
